Measured values gathered from unrelated publications.
Each line is one published result; not all experiments were run side by side.
Route: intravenous

host | sample | dose | clearance | Structure (SMILES)
beagle dog | plasma | 1 mg/kg | 0.333 mL/min/kg | N#Cc1ccnc(N2C(=O)CC[C@H]2C(=O)N(c2cncc(F)c2)[C@H](C(=O)NC2CC(F)(F)C2)c2ccccc2Cl)c1
beagle dog | blood | 0.5 mg/kg | 257 mL/min | OCC1OC(n2cnc3c(NCc4ccc(Br)s4)ncnc32)C(O)C1O (centres unmarked)
beagle dog | plasma | 1 mg/kg | 2 mL/min/kg | N#Cc1ccnc(N2C(=O)CC[C@H]2C(=O)N(c2cc(F)cc(F)c2)[C@H](C(=O)NC2CC(F)(F)C2)c2ccccc2Cl)c1 (stereo in doubt)
male beagle dog | plasma |  | 6.5 mL/min/kg | CCC1(CC)CC(=O)N(C2CCOc3ccc(C(=O)NC4CC(C)(C)Oc5ccccc54)cc32)C(=N)N1 (centres unmarked)
male beagle dog | plasma | 2 mg/kg | 1.13 mL/min/kg | COc1cc2ncnc(Oc3ccc(Nc4nccc5[nH]cc(-c6ccc(F)cc6)c(=O)c45)cc3F)c2cc1OC
male beagle dog | plasma | 2 mg/kg | 3.8 mL/min/kg | C/C(N)=N/C(=N\S(=O)(=O)c1ccc(C(F)(F)F)cc1)N1C[C@H](c2ccccc2)C(c2ccc(Cl)cc2)=N1
male beagle dog | plasma |  | 8.9 mL/min/kg | CCC1(CC)CC(=O)N(C2c3cc(C(=O)NC4c5ccccc5CC4O)ccc3OC2(C)COC)C(=N)N1 (centres unmarked)
male beagle dog | plasma | 1 mg/kg | 3.67 mL/min/kg | Cc1[nH]nc2c1N=C(c1ccccc1Cl)c1cnc(N3CCOCC3)cc1N2

Repeated from above:
host | sample | dose | clearance | Structure (SMILES)
male beagle dog | plasma | 2 mg/kg | 3.8 mL/min/kg | C/C(N)=N/C(=N\S(=O)(=O)c1ccc(C(F)(F)F)cc1)N1C[C@H](c2ccccc2)C(c2ccc(Cl)cc2)=N1
